Results of several laboratories.
Several values in a cell are separate wells, animals, samples, runs or records. Numbers after ± are the reported error.
Sequence of UniProt P27361 (whole entry, looked up): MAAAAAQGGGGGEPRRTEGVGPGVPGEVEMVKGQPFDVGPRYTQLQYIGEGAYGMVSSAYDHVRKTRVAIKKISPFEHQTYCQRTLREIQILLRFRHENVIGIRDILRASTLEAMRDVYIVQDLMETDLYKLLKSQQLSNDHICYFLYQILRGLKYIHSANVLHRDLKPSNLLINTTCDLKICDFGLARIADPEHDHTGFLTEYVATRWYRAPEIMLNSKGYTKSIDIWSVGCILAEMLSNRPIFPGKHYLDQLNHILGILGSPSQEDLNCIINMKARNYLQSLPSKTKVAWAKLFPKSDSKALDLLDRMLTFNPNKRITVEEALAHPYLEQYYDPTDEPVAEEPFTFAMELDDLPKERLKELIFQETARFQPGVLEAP

CC=C1CNC2CC3(C(=O)N(OC)c4cc(OC)ccc43)C3CC1C2CO3 (stereo not drawn) — viability (HT-22; CCK-8; up to 100 µM, 24 h): no effect
COc1ccccc1-c1n[nH]c2nc(NC3CCN(C(=O)Cc4ccc(F)cc4F)CC3)ncc12 — relative abundance (bead binding, competition bead pull-down, measured: LINJ.34.3160; Leishmania donovani axenic amastigote extract; 10 µM; reference: vehicle): 1
CC(C)(C)C(=O)OCOP(=O)(OCOC(=O)C(C)(C)C)C1CCCN(O)C1=O (stereo not drawn) — log LC50 (K562): > -4 log M
O=C(C[Se]C(=O)c1ccco1)Nc1cccc(C(F)(F)F)c1 — mean TGI (NCI60 leukaemia subpanel; NCI60 five-dose screen): 60.3 µM
CC(=O)NCSC[C@H](NC(=O)[C@@H]1CCCN1C(=O)[C@H](C)NC(=O)[C@@H](NC(=O)CNC(=O)[C@@H](NC(=O)[C@H](Cc1c[nH]c2ccccc12)NC(=O)[C@H](C)NC(=O)CNC(=O)[C@H](CO)NC(=O)[C@H](C)NC(=O)[C@@H]1CCCN1C(=O)[C@H](Cc1c[nH]c2ccccc12)NC(=O)[C@H](C)NC(=O)[C@H](C)NC(=O)[C@@H](N)Cc1ccc(O)cc1)[C@@H](C)O)[C@@H](C)O)C(=O)N[C@@H](CO)C(=O)N[C@@H](C)C(=O)NCC(=O)N[C@H](C(=O)NCCOCCOCCOCCOCCOCCOCCOCCOCCOCCOCCOCCOCCC(=O)N[C@@H](CS)C(N)=O)[C@@H](C)O — selectivity ratio (PC-9; phage binding; reference: targeting over control phage): 5.8 ± 2.2
CC[C@H](C)[C@H](NC(=O)[C@H](C)NC(=O)CNC(=O)[C@H](Cc1ccccc1)NC(=O)[C@H](CC(N)=O)NC(=O)[C@H](CC(N)=O)NC(=O)[C@H](CO[C@@H]1O[C@H](CO)[C@@H](O)[C@H](O)[C@H]1NC(C)=O)NC(=O)[C@H](CO)NC(=O)[C@H](Cc1c[nH]cn1)NC(=O)[C@@H](NC(=O)[C@H](CC(C)C)NC(=O)[C@H](Cc1ccccc1)NC(=O)[C@H](CC(N)=O)NC(=O)[C@H](C)NC(=O)[C@@H](N)CC(C)C)C(C)C)C(=O)N[C@@H](CC(C)C)C(N)=O — viability (INS-1; MTT; 5 equivalents to hIAPP, 24 h, with: hIAPP 1 µM): 71.4% and 74.1%
O=C1NC2(CC2)COc2ncc(F)cc2[C@H]2COCCN2c2ccn3ncc1c3n2 — organ-to-brain weight ratio (Sprague-Dawley rat, male, adrenals; oral, 5 mg/kg/day, 4 weeks, end of treatment): 2.9 ± 0.32%
O=C(C[Se]C(=O)c1cccs1)Nc1cccc(C(F)(F)F)c1 — CC50 (NCI60 melanoma subpanel; cytotoxicity, inhibitor; five-dose): 7.22 µM
CNC(=S)N/N=C/c1ccc(OCc2ccccc2)cc1 — glutathione peroxidase activity (OD450) (IMR-32; measured: GPX3; 100 µg/mL, 24 h; higher = more activity): 0.029 a.u.
CC1CCC2C(C)C(OC(=O)CCC(=O)N3CCC(Nc4ccc(S(=O)(=O)NC(=O)c5ccc(N6CCN(CC7=C(c8ccc(Cl)cc8)CC(C)(C)CC7)CC6)cc5Oc5cnc6[nH]ccc6c5)cc4[N+](=O)[O-])CC3)OC3OC4(C)CCC1C32OO4 (stereo not drawn) — early apoptotic cells (K562; annexin V/PI flow cytometry, measured: annexin V+/PI-; 3.2 µM, 24 h): 5.2%
NC(=O)CCCCC=C1C(=O)OC1CCc1ccccc1 (stereo not drawn) — lyso-PS level (mouse peritoneal macrophages ABHD16A knock-out; cellular and secreted lipids; 1 µM, 4 h, basal and LPS-stimulated): no effect
Cc1cc(C(=O)Nc2nc3cccc(C)c3n2[C@H]2CCCCN(C(=O)/C=C/CN(C)C)C2)ccn1 — EC50 fold shift (Trypanosoma brucei; cell growth, Alamar Blue; 2T1 overexpressing Tb927.7.6220; reference: parental 2T1): 0.5 fold and 0.71 fold
CC(O)CN.O=C(O)C(Cl)Cl — herbicidal inhibition (Eclipta prostrata; 15 mg/mL, 21 days, pre-emergence, greenhouse): 0%
CN(C)[C@H]1C[C@@]23CC[C@@]4(O2)C(=CC[C@]2(C)[C@@H](c5ccc6ccncc6c5)CC[C@H]24)C=C3[C@@H](O)[C@@H]1O — inhibition (MAPK3 (Homo sapiens, UniProt P27361); ATP probe labelling, inhibitor, KiNativ profiling; 1 µM): 2.4%
COc1ccccc1-c1ccncc1C(=O)Nc1nnc(OCc2ccc(Cl)cc2)s1 — colony survival (DLD-1 BRCA2-/-; 0.125 µM, single replicate; reference: untreated): 76.8% and 55.6% and 79.3%

Repeated from above:
CN(C)[C@H]1C[C@@]23CC[C@@]4(O2)C(=CC[C@]2(C)[C@@H](c5ccc6ccncc6c5)CC[C@H]24)C=C3[C@@H](O)[C@@H]1O — inhibition (MAPK3 (Homo sapiens, UniProt P27361); ATP probe labelling, inhibitor, KiNativ profiling; 1 µM): 2.4%
COc1ccccc1-c1ccncc1C(=O)Nc1nnc(OCc2ccc(Cl)cc2)s1 — colony survival (DLD-1 BRCA2-/-; 0.125 µM, single replicate; reference: untreated): 76.8% and 55.6% and 79.3%
